Assay results gathered from unrelated publications.
Each line is one published result; not all experiments were run side by side. Values joined by “and” are separate records of one study, mostly repeats; a detail may differ. ± marks the error that the study gave.

| SMILES | assay | system | setting | tissue uptake |
| --- | --- | --- | --- | --- |
| CCCC[C@H](NC(=O)CNC(=O)CNC(=O)[C@H](CCCCNC(=O)C(C)c1ccc(CC(C)C)cc1)NC(=O)CN1CCN(CC(=O)O)CCN(CC(=O)O)CCN(CC(=O)O)CC1)C(=O)N[C@H]1CC(=O)NCCCC[C@@H](C(N)=O)NC(=O)[C@H](Cc2c[nH]c3ccccc23)NC(=O)[C@H](CCCNC(=N)N)NC(=O)[C@@H](Cc2ccccc2)NC(=O)[C@H](Cc2c[nH]cn2)NC1=O (stereo partly shown) [lutetium-177 labelled] | – | C57 mice, tumour-bearing, kidneys | 2 h | 12.8 ± 2.45 %ID/g |
| Cc1cc(C)n(CCN(CCN)CCCCCCNC(=O)[C@@H](N)Cc2c[nH]c3ccccc23)n1.[99Tc+].[C-]#[O+].[C-]#[O+].[C-]#[O+] | – | BALB/c nude mice, A549 xenograft, blood | intravenous, 15 min | 1.8 ± 0.4 %IA/g |
| COc1ccc(Nc2nc(Nc3ccc(OCCOCCOCC[18F])cc3)ncc2Br)cc1 | – | ICR mice, S180 tumour-bearing, kidney | intravenous, 370 kBq, 120 min | 6.5 ± 0.91 %ID/g |
| COc1ccc2c(c1)C(C)(C)C(/C=C/C1=C(Oc3ccc(C(=O)NCCCCOc4cc(CN(Cc5ccccn5)Cc5ccccn5)cc(CN(Cc5ccccn5)Cc5ccccn5)c4)cc3)C(=C/C=C3/N(CCCCS(=O)(=O)[O-])c4ccc(OC)cc4C3(C)C)CCC1)=[N+]2CCCCS(=O)(=O)[O-].O=[N+]([O-])[O-].O=[N+]([O-])[O-].[99Tc+].[C-]#[O+].[C-]#[O+].[C-]#[O+].[Zn+2] | – | healthy BALB/c mice, pancreas | 12 h | 0.78 %ID/g and 0.73 %ID/g and 0.72 %ID/g and 0.65 %ID/g |
| O=C(NCC1OC2CCC=CCCC2O1)c1ccc([18F])nc1 (stereo not shown) | – | healthy female BALB/c nude mice, blood | intravenous, 7.4 MBq per mouse, 10 min | 6.3 ± 1.8 %ID/g |
| N#C[C@@H]1CCCN1C(=O)CNC(=O)c1ccnc2ccc(OCCCN3CCN(C(=O)CCc4ccc5c(c4)CN4CCN6CC(=O)[O][68Ga-]([O]C(=O)C4)([O]5)[O]c4ccc(CCC(=O)N5CCN(CCCOc7ccc8nccc(C(=O)NCC(=O)N9CCC[C@H]9C#N)c8c7)CC5)cc4C6)CC3)cc12 | – | BALB/c nude mice, U-87 MG xenograft, lung | 1 h | 2.38 ± 0.4 %ID/g |
| COc1ccc(Nc2nc(Nc3ccc(OCCOCC[18F])cc3)ncc2Br)cc1 | – | ICR mice, S180 tumour-bearing, brain | intravenous, 370 kBq, 15 min | 1.7 ± 0.13 %ID/g |
| O=C(NCC1OC2CCC=CCCC2O1)c1ccc(COCCOCCOCC[18F])cc1 (stereo not shown) | – | healthy female BALB/c nude mice, brain | intravenous, 7.4 MBq per mouse, 30 min | 2.5 ± 0.01 %ID/g |
| CCCC[C@H](NC(=O)COCCOCCNC(=O)CN1CCN(CC(=O)O)CCN(CC(=O)O)CC1)C(=O)N[C@H]1CC(=O)NCCCC[C@@H](C(N)=O)NC(=O)[C@H](Cc2c[nH]c3ccccc23)NC(=O)[C@H](CCCNC(=N)N)NC(=O)[C@@H](Cc2ccccc2)NC(=O)[C@H](Cc2c[nH]cn2)NC1=O [fluorine-18 labelled] | – | C57 mice, B16/F10 melanoma, skin | intravenous, 1 h, with: NDP-MSH 10 µg | 0.46 ± 0.14 %ID/g |
| CC(C)C[C@H](NC(=O)[C@@H](CCCCNC(=O)[C@@H](Cc1ccccc1)NC(=O)CCCCCCCNC(=O)CN1CCN(CC(=O)O)CCN(CC(=O)O)CCN(CC(=O)O)CC1)NC(=O)[C@H](Cc1ccc(O)cc1)NC(=O)[C@H](CO)NC(=O)[C@H](Cc1c[nH]c2ccccc12)NC(=O)[C@H](Cc1c[nH]cn1)NC(=O)[C@@H]1CCC(=O)N1)C(=O)N[C@@H](CCCNC(=N)N)C(=O)N1CCC[C@H]1C(=O)NCC(N)=O [indium-111 labelled] | – | male athymic nude mice, DU-145 xenograft, blood | intravenous, 1 h, with: 10 µg unlabelled blocking peptide | 0.46 ± 0.09 %ID/g |
| O=C([O-])CN1CCN(CC(=O)[O-])CCN(CC(=O)NC[C@H]2CC[C@H](C(=O)N[C@H](Cc3cnc4ccccc4c3)C(=O)NCCCC[C@H](NC(=O)N[C@@H](CCC(=O)O)C(=O)O)C(=O)O)CC2)CCN(CC(=O)[O-])CC1.[64Cu+2] | ex vivo gamma counting | 22Rv1 tumour-bearing mice, liver | intravenous, 0.74 MBq, 24 h post-injection | 16.8 %ID/g |
| CCCC[C@H](NC(=O)CNC(=O)CNC(=O)[C@H](CCCCNC(=O)[C@H](CC(=O)O)NC(=O)C(C)c1ccc(CC(C)C)cc1)NC(=O)CN1CCN(CC(=O)O)CCN(CC(=O)O)CCN(CC(=O)O)CC1)C(=O)N[C@H]1CC(=O)NCCCC[C@@H](C(N)=O)NC(=O)[C@H](Cc2c[nH]c3ccccc23)NC(=O)[C@H](CCCNC(=N)N)NC(=O)[C@@H](Cc2ccccc2)NC(=O)[C@H](Cc2c[nH]cn2)NC1=O (stereo partly shown) [lutetium-177 labelled] | – | C57 mice, tumour-bearing, liver | intravenous, 0.037 MBq, 0.5 h | 5 ± 0.37 %ID/g |
| Cc1cc(C)n(CCN(CCN)CCCCCCNC(=O)[C@@H](N)Cc2c[nH]cn2)n1.[99Tc+].[C-]#[O+].[C-]#[O+].[C-]#[O+] | – | BALB/c nude mice, MCF7 xenograft, intestine | intravenous, 4 h | 6.37 ± 0.82 %IA/g |
| CCCC[C@H](NC(=O)CNC(=O)CNC(=O)[C@H](CCCCNC(=O)[C@H](CC(N)=O)NC(=O)C(C)c1ccc(CC(C)C)cc1)NC(=O)CN1CCN(CC(=O)O)CCN(CC(=O)O)CCN(CC(=O)O)CC1)C(=O)N[C@H]1CC(=O)NCCCC[C@@H](C(N)=O)NC(=O)[C@H](Cc2c[nH]c3ccccc23)NC(=O)[C@H](CCCNC(=N)N)NC(=O)[C@@H](Cc2ccccc2)NC(=O)[C@H](Cc2c[nH]cn2)NC1=O (stereo partly shown) [lutetium-177 labelled] | – | C57 mice, tumour-bearing, heart | 2 h | 0.7 ± 0.33 %ID/g |
| CCCC[C@H](NC(=O)CCCCCCCNC(=O)CN1CCN(CC(=O)O)CCN(CC(=O)O)CC1)C(=O)N[C@H]1CC(=O)NCCCC[C@@H](C(N)=O)NC(=O)[C@H](Cc2c[nH]c3ccccc23)NC(=O)[C@H](CCCNC(=N)N)NC(=O)[C@@H](Cc2ccccc2)NC(=O)[C@H](Cc2c[nH]cn2)NC1=O [fluorine-18 labelled] | – | C57 mice, B16/F10 melanoma, intestines | intravenous, 0.37 MBq, 1 h | 2.26 ± 0.52 %ID |
| N#C[C@@H]1CCCN1C(=O)CNC(=O)c1ccnc2ccc(OCCCN3CCN(C(=O)CCc4ccc5c(c4)CN4CCN(Cc6cc(CCC(=O)O)ccc6O)CC(=O)[O][Al-]([18F])([O]C(=O)C4)[O]5)CC3)cc12 (stereo partly shown) | – | BALB/c nude mice, U-87 MG xenograft, lung | 1 h, blocking, with: DOTA-FAPI-04 40 nmol/mouse co-injected | 0.64 ± 0.39 %ID/g |

For quick reference, copied from above:
| SMILES | assay | system | setting | tissue uptake |
| --- | --- | --- | --- | --- |
| CCCC[C@H](NC(=O)CNC(=O)CNC(=O)[C@H](CCCCNC(=O)[C@H](CC(=O)O)NC(=O)C(C)c1ccc(CC(C)C)cc1)NC(=O)CN1CCN(CC(=O)O)CCN(CC(=O)O)CCN(CC(=O)O)CC1)C(=O)N[C@H]1CC(=O)NCCCC[C@@H](C(N)=O)NC(=O)[C@H](Cc2c[nH]c3ccccc23)NC(=O)[C@H](CCCNC(=N)N)NC(=O)[C@@H](Cc2ccccc2)NC(=O)[C@H](Cc2c[nH]cn2)NC1=O (stereo partly shown) [lutetium-177 labelled] | – | C57 mice, tumour-bearing, liver | intravenous, 0.037 MBq, 0.5 h | 5 ± 0.37 %ID/g |
| N#C[C@@H]1CCCN1C(=O)CNC(=O)c1ccnc2ccc(OCCCN3CCN(C(=O)CCc4ccc5c(c4)CN4CCN6CC(=O)[O][68Ga-]([O]C(=O)C4)([O]5)[O]c4ccc(CCC(=O)N5CCN(CCCOc7ccc8nccc(C(=O)NCC(=O)N9CCC[C@H]9C#N)c8c7)CC5)cc4C6)CC3)cc12 | – | BALB/c nude mice, U-87 MG xenograft, lung | 1 h | 2.38 ± 0.4 %ID/g |
